Measured values from different studies.
Each numbered part is a random draw from the data of one study; scales do not carry over between parts. Values joined by “and” are separate records of one study, mostly repeats; a detail may differ.
Chain of UniProt Q16659 (whole entry, looked up): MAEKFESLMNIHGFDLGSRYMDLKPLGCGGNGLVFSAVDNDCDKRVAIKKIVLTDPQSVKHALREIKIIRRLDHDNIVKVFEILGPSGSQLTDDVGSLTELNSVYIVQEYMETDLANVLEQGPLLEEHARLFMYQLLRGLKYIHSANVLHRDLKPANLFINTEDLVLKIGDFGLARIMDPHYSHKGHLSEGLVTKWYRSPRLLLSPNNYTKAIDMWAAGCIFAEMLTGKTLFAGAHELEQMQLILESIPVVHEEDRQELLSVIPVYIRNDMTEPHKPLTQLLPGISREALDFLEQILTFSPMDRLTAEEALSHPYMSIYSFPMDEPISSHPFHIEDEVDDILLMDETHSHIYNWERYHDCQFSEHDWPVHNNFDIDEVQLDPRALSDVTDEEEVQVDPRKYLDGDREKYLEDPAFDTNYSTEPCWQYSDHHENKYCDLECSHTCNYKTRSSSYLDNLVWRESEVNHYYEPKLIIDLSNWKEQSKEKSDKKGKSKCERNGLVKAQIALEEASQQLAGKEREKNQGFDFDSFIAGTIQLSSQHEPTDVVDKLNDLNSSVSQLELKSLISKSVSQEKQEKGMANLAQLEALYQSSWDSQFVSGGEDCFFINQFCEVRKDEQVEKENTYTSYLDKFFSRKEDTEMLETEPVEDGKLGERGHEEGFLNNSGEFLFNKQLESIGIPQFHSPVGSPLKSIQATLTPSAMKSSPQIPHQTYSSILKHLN
Chain of UniProt P07947 (whole entry, looked up): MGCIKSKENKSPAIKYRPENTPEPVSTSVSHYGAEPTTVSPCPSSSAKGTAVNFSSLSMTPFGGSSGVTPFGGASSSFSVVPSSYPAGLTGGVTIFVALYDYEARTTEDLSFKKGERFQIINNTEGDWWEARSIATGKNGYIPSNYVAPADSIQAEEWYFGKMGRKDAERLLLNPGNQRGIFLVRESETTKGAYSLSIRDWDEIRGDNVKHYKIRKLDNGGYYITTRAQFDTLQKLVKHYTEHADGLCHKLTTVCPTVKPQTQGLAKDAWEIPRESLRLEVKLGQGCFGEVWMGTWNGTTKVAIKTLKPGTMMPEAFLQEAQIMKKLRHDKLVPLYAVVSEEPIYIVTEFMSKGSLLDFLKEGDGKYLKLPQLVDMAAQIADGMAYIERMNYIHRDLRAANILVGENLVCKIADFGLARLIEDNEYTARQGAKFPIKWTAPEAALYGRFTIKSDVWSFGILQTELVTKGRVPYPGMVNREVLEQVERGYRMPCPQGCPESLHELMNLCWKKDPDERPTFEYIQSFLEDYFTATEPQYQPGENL
Chain of UniProt P27361 (whole entry, looked up): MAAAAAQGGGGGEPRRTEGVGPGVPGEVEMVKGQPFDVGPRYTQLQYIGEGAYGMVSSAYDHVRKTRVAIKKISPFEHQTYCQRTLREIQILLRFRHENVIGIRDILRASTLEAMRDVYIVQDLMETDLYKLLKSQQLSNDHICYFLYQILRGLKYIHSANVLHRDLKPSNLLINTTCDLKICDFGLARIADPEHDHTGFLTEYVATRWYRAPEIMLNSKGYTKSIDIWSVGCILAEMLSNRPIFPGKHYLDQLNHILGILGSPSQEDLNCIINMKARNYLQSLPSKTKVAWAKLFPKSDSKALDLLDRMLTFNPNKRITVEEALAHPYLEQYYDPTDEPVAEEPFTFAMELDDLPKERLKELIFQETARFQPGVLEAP
Chain of UniProt Q6XUX3 (whole entry, looked up): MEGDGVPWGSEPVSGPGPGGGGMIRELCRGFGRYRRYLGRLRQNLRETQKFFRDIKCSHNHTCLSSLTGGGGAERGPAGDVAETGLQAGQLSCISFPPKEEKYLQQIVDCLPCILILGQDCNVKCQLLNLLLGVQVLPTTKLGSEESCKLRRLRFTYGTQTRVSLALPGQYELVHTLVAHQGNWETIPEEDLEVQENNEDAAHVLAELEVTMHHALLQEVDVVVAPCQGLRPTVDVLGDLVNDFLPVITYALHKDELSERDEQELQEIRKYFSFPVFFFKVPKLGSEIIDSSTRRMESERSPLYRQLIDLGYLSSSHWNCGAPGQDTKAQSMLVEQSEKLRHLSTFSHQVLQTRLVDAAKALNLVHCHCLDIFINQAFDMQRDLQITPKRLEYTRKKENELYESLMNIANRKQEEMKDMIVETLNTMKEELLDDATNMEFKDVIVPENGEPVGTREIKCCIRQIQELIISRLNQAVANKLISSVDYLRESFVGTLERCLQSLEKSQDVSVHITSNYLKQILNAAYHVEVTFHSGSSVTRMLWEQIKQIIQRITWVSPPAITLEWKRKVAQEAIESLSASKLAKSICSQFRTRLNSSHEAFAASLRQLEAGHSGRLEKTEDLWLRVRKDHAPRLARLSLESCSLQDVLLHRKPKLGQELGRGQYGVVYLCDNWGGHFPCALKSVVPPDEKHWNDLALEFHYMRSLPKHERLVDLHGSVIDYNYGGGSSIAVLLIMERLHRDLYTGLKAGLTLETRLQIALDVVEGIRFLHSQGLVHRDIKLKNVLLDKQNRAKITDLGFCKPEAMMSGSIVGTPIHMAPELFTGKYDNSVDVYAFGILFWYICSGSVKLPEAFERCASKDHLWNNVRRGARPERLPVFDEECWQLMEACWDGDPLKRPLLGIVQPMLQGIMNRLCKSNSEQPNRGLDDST
Chain of UniProt O15530 (whole entry, looked up): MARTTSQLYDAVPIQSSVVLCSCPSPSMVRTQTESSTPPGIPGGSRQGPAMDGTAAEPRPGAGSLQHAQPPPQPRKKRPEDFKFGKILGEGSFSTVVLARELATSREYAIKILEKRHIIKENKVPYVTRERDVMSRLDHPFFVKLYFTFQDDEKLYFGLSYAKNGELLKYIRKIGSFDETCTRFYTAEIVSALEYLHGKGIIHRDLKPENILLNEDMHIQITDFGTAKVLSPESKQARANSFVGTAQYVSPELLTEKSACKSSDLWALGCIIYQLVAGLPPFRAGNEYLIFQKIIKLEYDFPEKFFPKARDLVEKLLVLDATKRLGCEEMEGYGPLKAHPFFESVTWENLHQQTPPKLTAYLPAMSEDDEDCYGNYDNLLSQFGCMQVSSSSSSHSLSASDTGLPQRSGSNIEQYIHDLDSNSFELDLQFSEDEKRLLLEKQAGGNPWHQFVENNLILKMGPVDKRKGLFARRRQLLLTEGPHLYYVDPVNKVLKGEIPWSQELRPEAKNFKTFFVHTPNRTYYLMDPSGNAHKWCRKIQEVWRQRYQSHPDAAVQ

Set 1
SMILES: Cc1ccc(O)c(C)c1-c1cnc2[nH]c(-c3cnc(N4CCC5(CC4)CC(N4CCN(c6cc7c(cc6F)c(N6CCC(=O)NC6=O)nn7C)CC4)CO5)nc3)cc2c1C#N (racemic)
Cell line: HCC1569
Technique: in-cell western
Item: CDK1 phospho-Thr14
concentration	pCDK1 (Thr14) level
12.35 nM	49.8 RLU and 48.9 RLU
0.15 nM	12.6 RLU and 7.93 RLU
1.37 nM	7.21 RLU and 8.55 RLU
1000 nM	105 RLU and 102 RLU
333.33 nM	84.3 RLU and 88.9 RLU
4.12 nM	20.7 RLU and 31.4 RLU
37.04 nM	55.3 RLU and 51.4 RLU
111.11 nM	69.5 RLU and 62 RLU

Set 2
Compound: O=C(Nc1ccccc1)Nc1cccc(Oc2ccc3nccn3n2)c1
target	read-out	technique	concentration	remaining binding [%]
RET (Homo sapiens, UniProt P07949, V804L)	binding	–	1 µM	87
DYRK2 (Homo sapiens, UniProt Q92630)	binding	–	1 µM	100
MAPK3 (Homo sapiens, UniProt P27361)	binding	–	1 µM	100
MAPK9 (Homo sapiens, UniProt P45984)	binding	competition with immobilised ligand	1 µM	100
PDPK1 (Homo sapiens, UniProt O15530)	binding	–	1 µM	100
GRK1 (Homo sapiens, UniProt Q15835)	binding	–	1 µM	100
Tyrosine-protein kinase ABL1, phosphorylated (ABL1, Homo sapiens, UniProt P00519, E255K)	binding	competition with immobilised ligand	1 µM	93
TLK1 (Homo sapiens, UniProt Q9UKI8)	binding	–	1 µM	83
PIM3 (Homo sapiens, UniProt Q86V86)	binding	–	1 µM	100
YES1 (Homo sapiens, UniProt P07947)	binding	competition with immobilised ligand	1 µM	100
DSTYK (Homo sapiens, UniProt Q6XUX3)	binding	–	1 µM	100
MATK (Homo sapiens, UniProt P42679)	binding	–	1 µM	100
MAPK6 (Homo sapiens, UniProt Q16659)	binding	–	1 µM	100
SIK2 (Homo sapiens, UniProt Q9H0K1)	binding	competition with immobilised ligand	1 µM	88
MET (Homo sapiens, UniProt P08581)	binding	–	1 µM	100
PDGFRA (Homo sapiens, UniProt P16234)	–	DiscoverX cell-free binding	1000 nM	1.1
Macrophage colony-stimulating factor 1 receptor, autoinhibited (CSF1R, Homo sapiens, UniProt P07333)	binding	competition with immobilised ligand	1 µM	100
CILK1 (Homo sapiens, UniProt Q9UPZ9)	binding	–	1 µM	100
EGFR (Homo sapiens, UniProt P00533, L858R/T790M)	binding	–	1 µM	100
PRKCQ (Homo sapiens, UniProt Q04759)	binding	–	1 µM	90
MYLK3 (Homo sapiens, UniProt Q32MK0)	binding	competition with immobilised ligand	1 µM	93
ACVRL1 (Homo sapiens, UniProt P37023)	binding	competition with immobilised ligand	1 µM	100

Set 3
Structure (SMILES): C[C@@H]1CN(c2ccc(-c3cc(C(=O)NCCOCCOCCOCCOCCNC(=O)Cn4cc(-c5[nH]cc(C(=O)N[C@@H](CC(N)=O)c6ccc(F)c(Cl)c6)c5-c5ccc(Cl)cc5F)cn4)ccc3F)cc2NC(=O)c2c[nH]c(=O)cc2C(F)(F)F)C[C@H](C)N1C
Read-out: thermal unfolding
Technique: differential scanning fluorimetry
Concentration: 5.5 µM
Reading: higher = more unfolded
WDR5: WD repeat-containing protein 5 (WDR5, Homo sapiens, UniProt P61964)
DCAF1: DDB1- and CUL4-associated factor 1 (DCAF1, Homo sapiens, UniProt Q9Y4B6)
Chain of UniProt Q9Y4B6 (whole entry, looked up): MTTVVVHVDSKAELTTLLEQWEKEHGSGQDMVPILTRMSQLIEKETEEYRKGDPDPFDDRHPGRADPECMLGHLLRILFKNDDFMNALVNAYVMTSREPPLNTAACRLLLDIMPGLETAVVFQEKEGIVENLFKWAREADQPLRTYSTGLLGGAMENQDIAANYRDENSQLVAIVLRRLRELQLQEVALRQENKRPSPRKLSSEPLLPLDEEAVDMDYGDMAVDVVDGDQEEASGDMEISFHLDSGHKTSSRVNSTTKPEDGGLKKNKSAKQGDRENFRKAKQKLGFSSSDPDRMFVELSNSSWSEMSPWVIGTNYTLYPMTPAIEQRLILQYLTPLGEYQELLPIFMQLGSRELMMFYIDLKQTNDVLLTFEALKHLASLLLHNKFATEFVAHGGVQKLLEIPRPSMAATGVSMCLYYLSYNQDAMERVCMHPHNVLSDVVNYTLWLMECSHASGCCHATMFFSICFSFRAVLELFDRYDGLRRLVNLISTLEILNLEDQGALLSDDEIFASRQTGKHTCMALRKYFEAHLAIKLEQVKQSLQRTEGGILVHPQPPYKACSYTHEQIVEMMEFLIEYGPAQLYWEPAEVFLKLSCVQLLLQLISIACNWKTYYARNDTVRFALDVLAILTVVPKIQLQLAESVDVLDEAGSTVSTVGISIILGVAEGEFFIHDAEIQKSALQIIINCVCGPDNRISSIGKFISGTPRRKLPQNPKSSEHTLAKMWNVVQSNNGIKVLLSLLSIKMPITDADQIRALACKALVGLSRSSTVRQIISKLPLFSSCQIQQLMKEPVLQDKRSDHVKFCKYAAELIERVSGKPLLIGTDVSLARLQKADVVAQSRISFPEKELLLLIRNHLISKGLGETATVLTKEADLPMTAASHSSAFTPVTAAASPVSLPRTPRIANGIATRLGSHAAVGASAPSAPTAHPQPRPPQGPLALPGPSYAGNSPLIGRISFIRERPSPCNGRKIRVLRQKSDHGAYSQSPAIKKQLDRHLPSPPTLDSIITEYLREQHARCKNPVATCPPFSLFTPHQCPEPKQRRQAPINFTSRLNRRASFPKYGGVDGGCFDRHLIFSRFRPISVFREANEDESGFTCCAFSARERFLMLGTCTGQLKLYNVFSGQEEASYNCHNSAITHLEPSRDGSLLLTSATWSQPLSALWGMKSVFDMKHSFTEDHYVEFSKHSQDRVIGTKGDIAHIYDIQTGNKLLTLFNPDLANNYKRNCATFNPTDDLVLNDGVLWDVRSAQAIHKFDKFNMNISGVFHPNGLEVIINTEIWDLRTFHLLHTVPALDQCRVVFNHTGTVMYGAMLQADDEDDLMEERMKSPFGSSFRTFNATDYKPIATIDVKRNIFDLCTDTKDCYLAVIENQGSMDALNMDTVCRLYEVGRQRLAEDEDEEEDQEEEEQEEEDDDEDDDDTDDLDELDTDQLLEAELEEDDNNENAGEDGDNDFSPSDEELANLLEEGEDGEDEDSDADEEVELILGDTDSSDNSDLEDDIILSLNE
target	temperature	SYPRO Orange fluorescence
WDR5	47 °C	14300 a.u.
DCAF1	39.8 °C	10200 a.u.
WDR5	73.41 °C	8790 a.u.
DCAF1	58.01 °C	28900 a.u.
WDR5	64.81 °C	7730 a.u.
WDR5	65.61 °C	7400 a.u.
WDR5	43.6 °C	14400 a.u.

Set 4
Compound: Cc1ncsc1-c1ccc(C(CO)NC(=O)C2CC(O)CN2C(=O)C(NC(=O)c2ccc(COc3c(-c4c(C)c(F)cc5[nH]ncc45)c(C4CC4)cc4c(N5CC6CC5CN6)nc(OC5CCOCC5)nc34)cc2)C(C)C)cc1 (stereo not drawn)
Time: 6 days
cell line	read-out	technique	concentration	viability
ASPC1	cell growth or viability	ATP luminescence	3 µM	4.3% and 6.37% and 7.33% and 3.97% and 5.5% and 5.26%
AsPC-1	–	CellTiter-Glo	1 nM	90.7% and 82.5% and 78.1%
AsPC-1	–	CellTiter-Glo	10 nM	87.2% and 84.8% and 90.5%
ASPC1	cell growth or viability	ATP luminescence	1 µM	7.32% and 9.69% and 5.11% and 8.93% and 5.45% and 7.21%
ASPC1	cell growth or viability	ATP luminescence	3 nM	90.3% and 84.1% and 84.7% and 88.9% and 80.5% and 94.5%
AsPC-1	–	CellTiter-Glo	300 nM	36.8% and 26.9% and 24%

Set 5
SMILES: CCN1/C(=C/C=C2\CCCC(/C=C/C3=[N+](CC)c4ccccc4C3(C)C)=C2NCCCCCCCCN2CCC(Nc3nc4ccccc4n3Cc3ccc(F)cc3)CC2)C(C)(C)c2ccccc21
Cell line: U-87 MG
Concentration: concentration not given
Relative to: DMSO
item	log2 fold change
CNIH1 mRNA	0.837
GEMIN6 mRNA	-1.01
SMC4 mRNA	-1.43
IER3 mRNA	1.53
OXTR mRNA	-2.56
ATXN1 mRNA	0.935
CYTH4 mRNA	-2.2
ATF4 mRNA	0.941
YRDC mRNA	1.06
TNFSF9 mRNA	2.05
RBM43 mRNA	-1.02

For quick reference, copied from above (set 3):
target	temperature	SYPRO Orange fluorescence
WDR5	47 °C	14300 a.u.
DCAF1	39.8 °C	10200 a.u.
WDR5	73.41 °C	8790 a.u.
DCAF1	58.01 °C	28900 a.u.
WDR5	64.81 °C	7730 a.u.
WDR5	65.61 °C	7400 a.u.
WDR5	43.6 °C	14400 a.u.
